Literature values as cited in several papers.
Compare with care: the assays were run in different laboratories. Numbers after ± are the reported error.
Chain of UniProt Q5S007 (whole entry, looked up): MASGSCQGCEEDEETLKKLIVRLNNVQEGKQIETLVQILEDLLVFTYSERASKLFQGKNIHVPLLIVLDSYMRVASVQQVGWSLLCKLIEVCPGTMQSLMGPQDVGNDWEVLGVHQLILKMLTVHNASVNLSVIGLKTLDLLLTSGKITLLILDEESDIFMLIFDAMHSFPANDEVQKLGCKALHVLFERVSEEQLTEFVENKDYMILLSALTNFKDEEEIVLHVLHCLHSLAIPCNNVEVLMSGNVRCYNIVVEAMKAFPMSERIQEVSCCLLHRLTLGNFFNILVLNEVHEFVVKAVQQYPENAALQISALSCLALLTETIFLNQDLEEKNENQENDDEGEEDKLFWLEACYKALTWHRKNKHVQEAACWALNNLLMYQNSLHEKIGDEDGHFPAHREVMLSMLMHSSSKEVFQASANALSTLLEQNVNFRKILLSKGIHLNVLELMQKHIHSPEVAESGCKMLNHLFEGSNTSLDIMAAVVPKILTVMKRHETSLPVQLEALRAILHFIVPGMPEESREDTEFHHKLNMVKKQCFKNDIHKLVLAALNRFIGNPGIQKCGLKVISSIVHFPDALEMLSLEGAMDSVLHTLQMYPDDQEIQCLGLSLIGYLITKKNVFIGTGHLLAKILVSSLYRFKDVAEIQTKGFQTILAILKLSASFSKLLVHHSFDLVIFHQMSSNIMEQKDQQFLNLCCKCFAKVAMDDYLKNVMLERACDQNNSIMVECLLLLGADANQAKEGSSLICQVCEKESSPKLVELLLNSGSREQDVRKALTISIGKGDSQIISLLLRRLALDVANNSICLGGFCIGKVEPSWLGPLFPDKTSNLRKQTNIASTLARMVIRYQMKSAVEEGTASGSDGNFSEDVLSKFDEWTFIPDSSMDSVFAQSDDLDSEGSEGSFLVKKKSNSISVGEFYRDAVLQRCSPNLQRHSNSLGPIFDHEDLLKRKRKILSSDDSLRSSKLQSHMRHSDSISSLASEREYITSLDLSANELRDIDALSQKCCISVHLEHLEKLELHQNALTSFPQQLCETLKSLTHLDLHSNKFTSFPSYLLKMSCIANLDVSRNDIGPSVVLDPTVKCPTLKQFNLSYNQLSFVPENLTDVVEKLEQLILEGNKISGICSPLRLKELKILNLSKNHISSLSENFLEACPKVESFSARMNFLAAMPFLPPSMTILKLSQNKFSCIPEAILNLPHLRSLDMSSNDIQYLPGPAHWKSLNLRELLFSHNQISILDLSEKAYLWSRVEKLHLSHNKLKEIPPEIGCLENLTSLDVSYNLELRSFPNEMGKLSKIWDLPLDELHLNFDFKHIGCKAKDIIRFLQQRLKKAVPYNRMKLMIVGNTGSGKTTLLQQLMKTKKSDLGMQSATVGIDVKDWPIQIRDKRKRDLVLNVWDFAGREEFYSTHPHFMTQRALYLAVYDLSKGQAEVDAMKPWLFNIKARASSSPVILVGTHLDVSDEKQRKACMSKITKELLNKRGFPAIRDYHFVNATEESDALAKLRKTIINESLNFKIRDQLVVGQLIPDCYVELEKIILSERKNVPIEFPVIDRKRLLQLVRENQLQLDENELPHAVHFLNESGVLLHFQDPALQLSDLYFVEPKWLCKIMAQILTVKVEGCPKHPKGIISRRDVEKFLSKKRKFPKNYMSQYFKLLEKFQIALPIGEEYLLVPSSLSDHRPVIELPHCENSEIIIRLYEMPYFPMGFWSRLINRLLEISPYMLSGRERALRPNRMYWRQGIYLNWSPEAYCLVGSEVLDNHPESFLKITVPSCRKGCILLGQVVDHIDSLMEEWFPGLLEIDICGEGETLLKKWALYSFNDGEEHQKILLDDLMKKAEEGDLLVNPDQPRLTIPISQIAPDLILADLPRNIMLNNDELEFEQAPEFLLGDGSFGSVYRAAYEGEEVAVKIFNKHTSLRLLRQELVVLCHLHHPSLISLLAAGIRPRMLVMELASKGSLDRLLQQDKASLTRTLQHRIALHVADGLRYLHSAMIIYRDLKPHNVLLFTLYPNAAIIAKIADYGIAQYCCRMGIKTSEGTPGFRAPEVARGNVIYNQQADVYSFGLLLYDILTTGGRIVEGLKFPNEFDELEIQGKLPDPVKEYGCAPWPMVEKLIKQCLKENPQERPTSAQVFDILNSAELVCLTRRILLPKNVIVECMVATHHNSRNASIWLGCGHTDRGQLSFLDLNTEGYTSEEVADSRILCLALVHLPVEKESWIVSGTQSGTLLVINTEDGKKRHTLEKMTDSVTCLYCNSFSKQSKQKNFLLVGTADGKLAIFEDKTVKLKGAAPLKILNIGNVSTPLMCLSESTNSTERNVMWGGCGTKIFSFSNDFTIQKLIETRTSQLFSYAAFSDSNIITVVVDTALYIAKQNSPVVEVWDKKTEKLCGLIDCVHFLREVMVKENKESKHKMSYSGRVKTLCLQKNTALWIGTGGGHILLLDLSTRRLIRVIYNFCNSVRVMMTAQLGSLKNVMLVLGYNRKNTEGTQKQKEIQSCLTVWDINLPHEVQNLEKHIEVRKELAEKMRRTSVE

CN/C(=N/CCSCc1nc[nH]c1C)NC#N
clearance (human): 5.26 mL/min/kg

O=C(O)Cc1ccccc1Nc1c(Cl)cccc1Cl
clearance (human): 3.6 mL/min/kg

NC(=O)CC[C@@H]1NC(=O)[C@H](Cc2ccccc2)NC(=O)[C@H](Cc2ccc(O)cc2)NC(=O)CCSSC[C@@H](C(=O)N2CCC[C@H]2C(=O)N[C@H](CCCN=C(N)N)C(=O)NCC(N)=O)NC(=O)[C@H](CC(N)=O)NC1=O
clearance (human, von Willebrand disease patients; intravenous, 0.3 µg/kg): 9.43 L/h

CN(C)CCCN1c2ccccc2Sc2ccc(Cl)cc21
clearance (human): 12.3 mL/min/kg

Cc1ccc([C@@H]2O[C@H](CO)[C@@H](O)[C@H](O)[C@H]2O)cc1Cc1ccc(-c2ccc(F)cc2)s1
clearance (human, preserved kidney function; 300 mg, steady state, mean): 16.4 L/h

CCc1cc(/C(C)=N/OCc2ccc(C3CCCCC3)c(C(F)(F)F)c2)ccc1CN1CC(C(=O)O)C1
clearance (population PK; human, CYP2C9*2/*3): 1.72 L/h

O=C(NC[C@H]1CN(c2ccc(N3CCOCC3=O)cc2)C(=O)O1)c1ccc(Cl)s1
clearance (healthy human subjects; intravenous): ~10 L/h

C#C[C@]1(O)CC[C@H]2[C@@H]3CCC4=CC(=NO)CC[C@@H]4[C@H]3CC[C@@]21CC (mixture of isomers)
clearance (human; intravenous): 7.89 L/h

COCCc1ccc(OCC(O)CNC(C)C)cc1 (stereo not drawn)
clearance (human): 275 L/h

COc1ccc(C[C@@H](C)[C@@H](C)Cc2ccc(OC)c(OC)c2)cc1OC
clearance (human; intravenous, dose not given): 54.4 ± 20.8 L/h

Cn1c(=O)c2c(ncn2C)n(C)c1=O
clearance (human): 5.3 L/h

Nc1cc(C(F)(F)F)c(-c2nc(N3CCOCC3)nc(N3CCOCC3)n2)cn1
remaining activity (LRRK2 (Homo sapiens, UniProt Q5S007); enzyme activity; 10 µM; reference: untreated): 91%
